Measurements pooled from the literature.
A part holds a random share of what one study measured.

Block 1 — technique: universal PBM; molecule type: double-stranded DNA, one strand shown; matrix: in vitro; concentration: not given; direction: higher = stronger binding; quantity: E-score
Target: Sal-like protein 4, full length isoform B (SALL4, Homo sapiens, UniProt Q9UJQ4-2, residues 1-616)
Notes: 8-mer, flanks averaged, mean of replicates
Residues (chain): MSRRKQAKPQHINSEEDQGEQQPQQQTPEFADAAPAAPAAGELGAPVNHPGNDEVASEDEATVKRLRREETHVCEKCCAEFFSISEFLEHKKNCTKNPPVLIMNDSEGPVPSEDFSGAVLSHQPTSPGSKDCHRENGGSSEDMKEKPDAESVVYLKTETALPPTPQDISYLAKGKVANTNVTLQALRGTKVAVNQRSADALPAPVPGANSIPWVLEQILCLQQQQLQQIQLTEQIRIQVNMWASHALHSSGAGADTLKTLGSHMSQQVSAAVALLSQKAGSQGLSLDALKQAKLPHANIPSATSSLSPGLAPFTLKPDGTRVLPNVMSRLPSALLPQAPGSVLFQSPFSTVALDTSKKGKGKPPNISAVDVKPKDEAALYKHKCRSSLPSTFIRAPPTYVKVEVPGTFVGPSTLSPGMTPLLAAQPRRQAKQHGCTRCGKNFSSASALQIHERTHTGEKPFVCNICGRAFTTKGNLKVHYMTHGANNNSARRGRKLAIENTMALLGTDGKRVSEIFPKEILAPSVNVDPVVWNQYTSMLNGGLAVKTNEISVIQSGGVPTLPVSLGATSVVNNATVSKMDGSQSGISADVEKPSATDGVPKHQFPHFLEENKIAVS
CAAGAACA: 0.107
CTTCGGTC: -0.134
ACCGTCGA: -0.226
CCGCGCGA: -0.225
AGTCACGC: -0.192
CGCTAGAC: -0.155

Block 2 — technique: protein-binding microarray; molecule type: double-stranded DNA, one strand shown; matrix: in vitro; concentration: not given; direction: higher = stronger binding; quantity: E-score
Target: TATA-box-binding protein 1 (TBP1, Arabidopsis thaliana, UniProt P28147, residues 1-200, full length assumed)
Notes: k-mer, scored over probes, only values ≥0.25
Target sequence (chain): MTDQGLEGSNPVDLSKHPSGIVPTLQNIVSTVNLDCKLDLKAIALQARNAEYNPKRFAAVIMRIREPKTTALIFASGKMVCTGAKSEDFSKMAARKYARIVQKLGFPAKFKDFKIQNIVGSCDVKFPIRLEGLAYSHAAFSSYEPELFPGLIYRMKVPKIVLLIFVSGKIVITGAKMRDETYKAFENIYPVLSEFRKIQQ
AACAGTA: 0.262
ATAAGTG: 0.292
AAAGTAT: 0.298

Block 3 — technique: protein binding microarray; molecule type: double-stranded DNA, one strand shown; matrix: in vitro; concentration: not given; relative to: not given; direction: higher = stronger binding; quantity: E-score
Target: Histone acetyltransferase KAT6A, winged helix 1, GST fusion (KAT6A, Homo sapiens, UniProt Q92794, residues 1-85)
Notes: 8-mer, flanks averaged, mean of 2 arrays, mostly near background
Construct (chain): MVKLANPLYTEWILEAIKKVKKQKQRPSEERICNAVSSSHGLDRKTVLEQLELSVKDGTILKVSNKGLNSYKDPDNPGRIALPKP
CACTATGC: 0.0572
GATATCAA: -0.0612
CTGAACTA: -0.0484
CTTCACAA: -0.288
ACCCTACT: -0.151

Single results of other studies
PhoQ, residues 284 288 289 292 302 303 SQSLSM — fold induction (PhoP, residues 12 14 15 18 19 NIMAP (Escherichia coli, UniProt P23836); Sort-seq, item: YFP reporter; E. coli; PhoQ-PhoP variant library, added: 10 µM Mg2+; relative to: high Mg2+ state, higher = stronger signaling): 0.359
